Measured values from different studies.
Values joined by “and” are separate records of one study, mostly repeats; a detail may differ. Numbers after ± are the reported error.
lasR: Transcriptional activator protein LasR (lasR, Pseudomonas aeruginosa, UniProt P25084)
UniProt P25084, sequence (whole entry, looked up): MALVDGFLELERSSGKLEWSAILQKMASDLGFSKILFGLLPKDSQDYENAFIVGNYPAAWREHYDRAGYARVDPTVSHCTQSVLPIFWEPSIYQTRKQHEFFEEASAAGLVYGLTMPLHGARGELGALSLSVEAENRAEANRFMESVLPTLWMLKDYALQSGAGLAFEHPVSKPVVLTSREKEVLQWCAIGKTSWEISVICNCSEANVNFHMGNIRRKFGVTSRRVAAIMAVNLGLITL
Oprm1: Mu-type opioid receptor (Oprm1, Rattus norvegicus, UniProt P33535)
UniProt P33535, sequence (whole entry, looked up): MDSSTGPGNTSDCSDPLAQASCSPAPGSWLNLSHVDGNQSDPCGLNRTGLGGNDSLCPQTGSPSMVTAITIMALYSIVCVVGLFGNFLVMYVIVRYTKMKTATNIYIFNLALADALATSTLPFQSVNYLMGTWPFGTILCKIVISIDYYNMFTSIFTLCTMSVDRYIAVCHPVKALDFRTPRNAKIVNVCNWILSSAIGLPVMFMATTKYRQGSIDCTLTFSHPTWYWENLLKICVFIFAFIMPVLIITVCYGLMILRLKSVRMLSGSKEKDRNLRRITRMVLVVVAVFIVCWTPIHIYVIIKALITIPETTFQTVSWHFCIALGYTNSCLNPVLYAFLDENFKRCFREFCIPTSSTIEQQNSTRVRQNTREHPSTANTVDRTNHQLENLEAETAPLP
KEAP1: Kelch-like ECH-associated protein 1 (KEAP1, Homo sapiens, UniProt Q14145)
UniProt Q14145, sequence (whole entry, looked up): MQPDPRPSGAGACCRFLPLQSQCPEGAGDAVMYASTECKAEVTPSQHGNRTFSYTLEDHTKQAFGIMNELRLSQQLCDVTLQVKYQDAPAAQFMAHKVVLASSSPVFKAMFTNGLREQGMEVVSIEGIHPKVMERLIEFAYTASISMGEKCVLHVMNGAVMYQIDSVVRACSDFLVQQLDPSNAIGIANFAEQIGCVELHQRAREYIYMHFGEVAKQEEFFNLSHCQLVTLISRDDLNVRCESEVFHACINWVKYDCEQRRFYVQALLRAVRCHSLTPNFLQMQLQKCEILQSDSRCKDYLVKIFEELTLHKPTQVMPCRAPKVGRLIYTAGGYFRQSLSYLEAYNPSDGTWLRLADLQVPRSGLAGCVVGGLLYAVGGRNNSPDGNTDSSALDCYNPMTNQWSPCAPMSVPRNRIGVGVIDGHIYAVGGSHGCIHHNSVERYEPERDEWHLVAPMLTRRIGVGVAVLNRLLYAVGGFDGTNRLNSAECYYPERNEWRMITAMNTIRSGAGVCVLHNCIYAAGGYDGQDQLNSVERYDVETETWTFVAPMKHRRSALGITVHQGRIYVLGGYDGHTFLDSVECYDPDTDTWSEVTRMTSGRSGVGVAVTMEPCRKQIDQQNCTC
Uncharacterized hydrolase SAUSA300_2518: Uncharacterized hydrolase SAUSA300_2518 (Staphylococcus aureus, UniProt Q2FDS6)
UniProt Q2FDS6, sequence (whole entry, looked up): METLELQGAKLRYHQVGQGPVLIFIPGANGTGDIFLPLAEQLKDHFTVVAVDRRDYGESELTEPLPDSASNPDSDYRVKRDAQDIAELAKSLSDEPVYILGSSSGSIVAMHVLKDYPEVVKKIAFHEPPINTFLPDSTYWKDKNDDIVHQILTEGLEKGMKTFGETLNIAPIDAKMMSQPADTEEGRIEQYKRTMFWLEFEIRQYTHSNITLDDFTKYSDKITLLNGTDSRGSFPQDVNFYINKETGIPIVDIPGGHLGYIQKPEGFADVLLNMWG
sdiA: Regulatory protein SdiA (sdiA, Escherichia coli, UniProt P07026)
UniProt Q91V12, sequence (whole entry, looked up): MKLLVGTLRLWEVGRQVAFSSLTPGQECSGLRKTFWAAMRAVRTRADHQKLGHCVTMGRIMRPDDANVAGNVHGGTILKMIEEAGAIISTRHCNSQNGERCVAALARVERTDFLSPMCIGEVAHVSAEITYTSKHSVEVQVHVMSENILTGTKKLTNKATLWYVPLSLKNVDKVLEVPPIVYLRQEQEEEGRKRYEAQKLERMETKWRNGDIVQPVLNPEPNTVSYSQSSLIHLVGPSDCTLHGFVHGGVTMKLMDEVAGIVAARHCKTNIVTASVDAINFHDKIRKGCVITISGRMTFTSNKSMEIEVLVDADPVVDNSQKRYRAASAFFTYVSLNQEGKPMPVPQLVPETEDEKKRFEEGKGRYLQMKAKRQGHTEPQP
UniProt Q9H2X3, sequence (whole entry, looked up): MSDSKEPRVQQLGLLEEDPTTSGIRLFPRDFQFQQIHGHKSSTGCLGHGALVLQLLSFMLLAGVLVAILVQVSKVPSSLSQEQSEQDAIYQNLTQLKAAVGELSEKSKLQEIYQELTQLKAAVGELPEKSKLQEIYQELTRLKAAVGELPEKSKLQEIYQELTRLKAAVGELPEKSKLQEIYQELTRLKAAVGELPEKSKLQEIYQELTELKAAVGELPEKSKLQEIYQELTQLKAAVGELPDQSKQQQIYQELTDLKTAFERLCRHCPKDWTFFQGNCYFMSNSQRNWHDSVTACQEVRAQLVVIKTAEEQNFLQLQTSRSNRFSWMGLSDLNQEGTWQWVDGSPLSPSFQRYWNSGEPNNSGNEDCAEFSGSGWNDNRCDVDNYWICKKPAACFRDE
UniProt Q9Y2J8, sequence (whole entry, looked up): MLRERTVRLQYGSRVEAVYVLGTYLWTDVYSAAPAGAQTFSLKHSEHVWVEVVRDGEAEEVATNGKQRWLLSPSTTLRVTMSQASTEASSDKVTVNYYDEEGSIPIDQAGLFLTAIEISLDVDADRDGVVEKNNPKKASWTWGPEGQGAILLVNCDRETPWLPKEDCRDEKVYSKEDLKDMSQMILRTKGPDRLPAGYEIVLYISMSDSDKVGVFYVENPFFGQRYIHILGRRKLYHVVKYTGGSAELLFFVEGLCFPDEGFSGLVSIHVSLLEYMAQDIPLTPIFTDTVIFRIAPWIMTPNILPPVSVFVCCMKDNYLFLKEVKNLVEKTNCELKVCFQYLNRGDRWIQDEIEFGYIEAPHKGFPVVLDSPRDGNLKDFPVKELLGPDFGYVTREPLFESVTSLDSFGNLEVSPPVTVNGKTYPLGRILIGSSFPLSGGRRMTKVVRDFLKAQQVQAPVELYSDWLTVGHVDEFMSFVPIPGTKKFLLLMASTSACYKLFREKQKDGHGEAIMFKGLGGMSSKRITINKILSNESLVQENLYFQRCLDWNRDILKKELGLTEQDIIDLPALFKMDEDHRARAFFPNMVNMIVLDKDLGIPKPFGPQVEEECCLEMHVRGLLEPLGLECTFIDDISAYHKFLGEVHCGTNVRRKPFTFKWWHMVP
UniProt Q9UH17, sequence (whole entry, looked up): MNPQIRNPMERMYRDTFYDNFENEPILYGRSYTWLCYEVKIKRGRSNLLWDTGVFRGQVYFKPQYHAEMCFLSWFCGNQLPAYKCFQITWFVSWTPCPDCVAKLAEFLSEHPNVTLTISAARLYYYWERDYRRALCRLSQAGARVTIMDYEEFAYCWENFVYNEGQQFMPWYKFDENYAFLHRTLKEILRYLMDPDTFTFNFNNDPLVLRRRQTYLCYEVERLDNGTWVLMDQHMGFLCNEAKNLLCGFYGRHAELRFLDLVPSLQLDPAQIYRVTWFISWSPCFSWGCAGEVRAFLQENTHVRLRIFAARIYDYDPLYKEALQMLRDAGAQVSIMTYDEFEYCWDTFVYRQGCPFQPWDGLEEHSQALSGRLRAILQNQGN
UniProt P07026, sequence (whole entry, looked up): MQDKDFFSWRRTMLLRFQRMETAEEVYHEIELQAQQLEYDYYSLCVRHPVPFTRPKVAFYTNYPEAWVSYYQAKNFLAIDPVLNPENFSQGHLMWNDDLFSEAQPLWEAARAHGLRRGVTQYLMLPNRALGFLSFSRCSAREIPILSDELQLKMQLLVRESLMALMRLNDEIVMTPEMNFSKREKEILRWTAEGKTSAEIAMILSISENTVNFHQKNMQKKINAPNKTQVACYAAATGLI
UniProt P0A988, sequence (whole entry, unmodified, looked up): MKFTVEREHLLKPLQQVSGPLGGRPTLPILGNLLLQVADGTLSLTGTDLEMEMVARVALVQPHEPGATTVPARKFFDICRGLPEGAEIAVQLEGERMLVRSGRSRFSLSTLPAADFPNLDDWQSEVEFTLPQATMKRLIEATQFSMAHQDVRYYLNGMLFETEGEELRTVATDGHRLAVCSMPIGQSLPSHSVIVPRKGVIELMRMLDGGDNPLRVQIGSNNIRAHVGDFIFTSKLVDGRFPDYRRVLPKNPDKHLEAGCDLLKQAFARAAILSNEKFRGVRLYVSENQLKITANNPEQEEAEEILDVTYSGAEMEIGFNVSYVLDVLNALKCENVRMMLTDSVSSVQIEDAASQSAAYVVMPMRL
UniProt Q6PIU2, sequence (whole entry, looked up): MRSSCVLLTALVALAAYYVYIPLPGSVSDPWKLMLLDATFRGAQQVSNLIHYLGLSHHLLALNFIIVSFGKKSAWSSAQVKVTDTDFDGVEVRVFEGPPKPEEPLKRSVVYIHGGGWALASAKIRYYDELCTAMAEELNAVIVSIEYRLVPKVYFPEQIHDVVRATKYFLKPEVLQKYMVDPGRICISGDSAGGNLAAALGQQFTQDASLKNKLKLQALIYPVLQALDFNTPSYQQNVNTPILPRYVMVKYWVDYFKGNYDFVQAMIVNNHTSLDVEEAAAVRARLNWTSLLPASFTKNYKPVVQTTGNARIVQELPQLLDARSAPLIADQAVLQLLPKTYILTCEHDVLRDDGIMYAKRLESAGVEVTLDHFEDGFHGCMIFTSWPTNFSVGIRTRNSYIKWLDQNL
UniProt Q6DWJ6, sequence (whole entry, looked up): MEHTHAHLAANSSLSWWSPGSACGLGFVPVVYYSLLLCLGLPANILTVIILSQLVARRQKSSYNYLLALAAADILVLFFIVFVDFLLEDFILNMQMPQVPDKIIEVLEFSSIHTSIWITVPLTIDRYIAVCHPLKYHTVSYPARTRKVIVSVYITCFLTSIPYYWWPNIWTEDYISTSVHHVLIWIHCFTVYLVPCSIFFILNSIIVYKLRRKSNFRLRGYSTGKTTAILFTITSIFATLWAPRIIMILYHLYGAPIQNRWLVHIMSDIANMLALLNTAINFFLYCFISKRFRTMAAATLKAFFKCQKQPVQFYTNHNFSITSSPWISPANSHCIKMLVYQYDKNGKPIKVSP

The agonist activity of `CCCCCCCCCC(=O)CC(=O)N[C@H]1CCOC1=O` is reported as 93% (lasR; reporter gene, agonist; Escherichia coli JLD271; 10 µM, pSC11 and pJN105L plasmids; reference: OdDHL at same concentration).
The remaining binding of `C[C@@H](O)[C@@H]1CN([C@@H](CC2CCCCC2)CN2CCC[C@H]2CN2CCNC[C@@H]2CO)CCN1CCc1ccc(Cl)c(Cl)c1` is reported as 104 ± 9.57% (Oprm1; radioligand binding; rat brain membranes; 500 nM, pH 7.5, 25 °C, with: 0.87 nM [3H]DAMGO).
`C=CC(=O)Nc1cc(-c2ccc(C(=O)N3CCCC(O)(CC)C3)cc2)ccc1F` (stereo not drawn) has an unmodified protein of 100% (DNA dC->dU-editing enzyme APOBEC-3B, C-terminal domain (Homo sapiens, UniProt Q9UH17); covalent adduct, intact protein MS; 5 h, 1-fold, 25 µM).
`CN(C)[C@H](CNC(=O)/C=C/c1cccc2ccccc12)Cc1ccc(O)cc1` gave an Emax of 85 ± 7% (Mu-type opioid receptor, with GoB (OPRM1, Homo sapiens, UniProt P35372); receptor activation, agonist).
`C#CCCCCOc1ccc2c(c1)CCCN2C(=O)CCl` has a reactivity ratio of 0.844 (Neutral cholesterol ester hydrolase 1 (NCEH1, Homo sapiens, UniProt Q6PIU2); mass spectrometry profiling; Ramos cell lysate; 100 µM over 10 µM, UniProt Q6PIU2; reference: high over low concentration).
`CCOC(=O)[C@@H]1Cc2c(cc([N+](=O)[O-])cc2[N+](=O)[O-])[C@H](O)[C@]12C(=O)Nc1ccc(Br)cc12` gave a remaining binding of 61% (Casein kinase I isoform delta (CSNK1D, Homo sapiens, UniProt P48730); binding, competition with immobilised ligand; 0.1 µM).
`CC(C)[C@@H]1NC(=O)[C@H](CC(N)=O)NC(=O)CNC(=O)[C@H](CC(N)=O)NC(=O)[C@H](C)NC(=O)[C@H](CC(=O)O)NC(=O)[C@H]([C@@H](C)O)NC(=O)[C@H](CCC(=O)O)NC(=O)CNC(=O)[C@H]([C@@H](C)O)NC(=O)[C@H](CCC(=O)O)NC(=O)[C@H](CCC(=O)O)NC(=O)[C@H](CC(=O)O)NC1=O` has a fluorescence polarization of 1.06 a.u. and 0.938 a.u. (KEAP1; Keap1-Nrf2 binding, inhibitor, competitive FP; 0.0244 µM, 30 min, with: Nrf2 peptide probe; lower = stronger inhibition).
`CC#CC(=O)NC[C@H](NC(=O)[C@H](CC1CCCCC1)NC(=O)[C@H](CCC(N)=O)NC(C)=O)C(=O)N[C@@H](CC(C)C)C(=O)N[C@@H](Cc1ccccc1)C(=O)O` gave a -TΔS of 0.04 kcal/mol (Beta sliding clamp (Escherichia coli, UniProt P0A988, H175G); isothermal titration calorimetry; 25 °C).
The remaining activity of `O=C(Nc1ccncc1)c1ccccc1OS(=O)(=O)F` is reported as 94.6% and 91.4% and 94.4% (Uncharacterized hydrolase SAUSA300_2518; enzyme activity, inhibitor, fluorogenic substrate; 0.01 µM).
For `O=C1NC(=O)c2c1c1cc(F)c[n+]3c1c1c2c2cc(O)ccc2[n]1[Ru-4]312([N]=C=S)[S+]3CC[S+]1CC[S+]2CC3` (stereo not drawn), the remaining activity was 5% (Receptor-type tyrosine-protein kinase FLT3 (FLT3, Homo sapiens, UniProt P36888); enzyme activity; 100 nM, human enzyme, with: 10 µM ATP; reference: untreated).
`N=C(N)NCc1cn([C@@H]2[C@@H](OCCCl)O[C@H](CO)[C@@H](O)[C@@H]2O)nn1` has a binding stoichiometry of 1.09 and 1.13 and 1.1 (C-type lectin domain family 4 member M, extracellular domain (CLEC4M, Homo sapiens, UniProt Q9H2X3); isothermal titration calorimetry; concentration not given).
For `CC[C@H](C)[C@H](NC(=O)[C@H](CCCNC(=N)N)NC(=O)[C@H](CCCNC(=N)N)NC(=O)[C@H](CC(C)C)NC(=O)[C@H](Cc1ccccc1)NC(=O)CNC(=O)CNC(=O)[C@@H](N)Cc1ccc(O)cc1)C(=O)N[C@@H](CCCNC(=N)N)C(=O)N1CCC[C@H]1C(=O)N[C@@H](CCCCN)C(=O)N[C@@H](CC(C)C)C(=O)N[C@@H](CCCCN)C(=O)O`, the Emax was 64.2% (Probable G-protein coupled receptor 139 (GPR139, Homo sapiens, UniProt Q6DWJ6); Gαi1 activation, agonist, BRET; HEK293T/17; 40 µM).
`O=C(CN1CN(c2ccccc2)C2(CCN(C(=O)c3cnc4[nH]ncc4c3)CC2)C1=O)NCC(F)(F)F` has an inhibition of less than 50% (Cyclin-dependent kinase 19 (CDK19, Homo sapiens, UniProt Q9BWU1); inhibitor; concentration not given).
For `O=C(O)c1cccc(CP(=O)(O)O)n1`, the koff was 0.0015 ± 0.000167 s⁻¹ (Metallo-beta-lactamase type 2 (Serratia marcescens, UniProt P52699); enzyme activity, inhibitor; with: nitrocefin).
`COc1ccc(CC(=O)N[C@H]2CCOC2=O)cc1` has an Emax of 99.8% (sdiA).
The agonist activity of `O=C1C=C(Br)/C(=C/Br)O1` is reported as 1% (lasR; reporter gene, agonist; Escherichia coli JLD271; 10 µM, pSC11 and pJN105L plasmids; reference: OdDHL at same concentration).
The melting temperature of `N[C@H](C(=O)N1CCCC1)C1CCN(c2nccc3c(-c4ncc(Cl)cc4Cl)cccc23)CC1` is reported as 58.8 °C and 58.9 °C (Protein-arginine deiminase type-2 (PADI2, Homo sapiens, UniProt Q9Y2J8); thermal shift; 0.00302 µM).
`CC(C)[C@@H]1NC(=O)[C@H](Cc2ccccc2)NC(=O)[C@H](C)NC(=O)[C@H](Cc2ccccc2)NC(=O)[C@@H](NC(=O)[C@H](C)N)CSC1=O` gave an EC50 ratio of 66 fold (Histidine kinase AgrC (Listeria monocytogenes, UniProt A8E0G3); reporter gene, agonist, agr GFP reporter; reference: native 6-mer AIP).
With `CS(C)(=O)=Nc1ccc(-c2ccc(-c3nc4cc(O[C@@H]5CO[C@H]6[C@@H]5OC[C@H]6O)[nH]c4cc3F)cc2)cc1` the inhibition was 10% (Serine/threonine-protein kinase NIM1 (NIM1K, Homo sapiens, UniProt Q8IY84); enzyme activity, inhibitor; 10 µM).
The fluorescence polarization of `CC(C)[C@@H]1NC(=O)[C@H](CCC(=O)O)NC(=O)CNC(=O)[C@H]([C@@H](C)O)NC(=O)[C@H](CCC(=O)O)NC(=O)[C@H](CCC(=O)O)NC(=O)[C@H](CC(=O)O)NC(=O)[C@H](C(C)C)NC(=O)[C@H]([C@@H](C)O)NC(=O)CNC(=O)[C@H](CC(=O)O)NC(=O)[C@H](CC(N)=O)NC(=O)[C@H](Cc2ccc(O)cc2)NC1=O` is reported as 0.167 a.u. and 0.177 a.u. (KEAP1; Keap1-Nrf2 binding, inhibitor, competitive FP; 0.3906 µM, 30 min, with: Nrf2 peptide probe; lower = stronger inhibition).
The SILAC ratio of `O=C(N1CCCCC1)n1ccnn1` is reported as 1.49 and 1.44 and 1.6 and 1.57 and 1.53 (Cytosolic acyl coenzyme A thioester hydrolase (Acot7, Mus musculus, UniProt Q91V12); probe labelling, inhibitor, competitive ABPP-SILAC, refers to: Acot7; mouse T cells; concentration not given, 4 h, in situ, single peptide; reference: treated over DMSO, lower = more inhibition).
The inhibition of `CN(/N=C/c1ccccc1C(=O)O)c1nc(-c2ccccc2Cl)cs1` is reported as 23.5% (NPM1-ALK; enzyme activity; 1 µM).
The agonist activity of `O=C(CC(=O)N[C@H]1CCOC1=O)Cc1ccccc1` is reported as 2% (lasR; reporter gene, agonist; Escherichia coli JLD271; 10 µM, pSC11 and pJN105L plasmids; reference: OdDHL at same concentration).
`Cc1cc(O)cc(C)c1C[C@H](N)C(=O)N[C@H](CCCNC(=N)N)C(=O)N[C@@H](Cc1ccccc1)C(=O)N[C@@H](CCCCN)C(=O)NNC(=O)[C@H](Cc1ccccc1)NC(=O)[C@H](CC1CCCCC1)NC[C@@H]1Cc2ccccc2CN1C(=O)[C@@H](N)Cc1ccc(O)cc1` gave a selectivity ratio of 4.91 (Oprm1; binding; rat brain membranes; with: [3H]DAMGO; reference: Ki mu over Ki delta).
`COc1ccccc1-c1n[nH]c2nc(N[C@H]3CC[C@H](NS(=O)(=O)CC(C)C)CC3)ncc12`: “relative captured amount” 0.11 (protein kinase LINJ.30.1580; bead competition pull-down; Leishmania extract; 10 µM; reference: vehicle).
`CCCCCCCCCC(=O)CC(=O)Nc1ccccc1O` has an agonist activity of 50% (lasR; reporter gene, agonist; Pseudomonas aeruginosa PAO-JP2; 100 µM, plasI-LVAgfp reporter; reference: OdDHL at same concentration).
`COc1cc2c(cc1S(=O)(=O)F)C(=O)NCCC2` gave a remaining activity of 94.4% and 90.5% and 96.1% (Uncharacterized hydrolase SAUSA300_2518; enzyme activity, inhibitor, fluorogenic substrate; 1 µM).
`CC(C)CC(O)(CC(C)C)c1cn(C(=O)N2CCCC2)nn1` has an activity ratio-of-ratios of 1.25 (GPI inositol-deacylase (Pgap1, Mus musculus, UniProt Q3UUQ7); probe labelling, inhibitor, refers to: Pgap1; mouse, brain; i.p., 0.8 mg/kg, 4 h, protein level; reference: treated over vehicle mice, lower = stronger inhibition).
For `CN(C)[C@H]1C[C@@]23CC[C@@]4(O2)C(=CC[C@]2(C)[C@@H](c5ccc6ccncc6c5)CC[C@H]24)C=C3[C@@H](O)[C@@H]1O`, the inhibition was 8.8% (Serine/threonine-protein kinase Nek7 (NEK7, Homo sapiens, UniProt Q8TDX7); ATP probe labelling, inhibitor, KiNativ profiling; 0.1 µM).
`CC(C)[C@H]1NC(=O)C[C@H]2/C=C/CCSSC[C@@H](NC1=O)C(=O)N[C@H](Cc1cccc3ccccc13)C(=O)NCC(=O)O2` gave an inhibition of 1.1% (Fibroblast growth factor receptor 2 (FGFR2, Homo sapiens, UniProt P21802); enzyme activity, inhibitor; 10 µM).
`CCCC(=O)CC(=O)N[C@H]1CCOC1=O` has an Emax of 114% (sdiA).
With `C[C@@H](O)[C@@H]1CN([C@@H](CC2CCCCC2)CN2CCC[C@H]2CN2CCNC[C@@H]2Cc2ccc3ccccc3c2)CCN1CCC12CC3CC(CC(C3)C1)C2` the remaining binding was 111 ± 5.93% (Oprm1; radioligand binding; rat brain membranes; 500 nM, pH 7.5, 25 °C, with: 0.87 nM [3H]DAMGO).
`O=C1NC2(CC2)COc2ncc(F)cc2[C@H]2COCCN2c2ccn3ncc1c3n2` — result for “organ-to-brain weight ratio”: 56.9 ± 13.4% (Sprague-Dawley rat, male, spleen; oral, 20 mg/kg/day, 4 weeks dosing, end of recovery).

Excerpt of the above:
`O=C(CN1CN(c2ccccc2)C2(CCN(C(=O)c3cnc4[nH]ncc4c3)CC2)C1=O)NCC(F)(F)F` has an inhibition of less than 50% (Cyclin-dependent kinase 19 (CDK19, Homo sapiens, UniProt Q9BWU1); inhibitor; concentration not given).
For `O=C(O)c1cccc(CP(=O)(O)O)n1`, the koff was 0.0015 ± 0.000167 s⁻¹ (Metallo-beta-lactamase type 2 (Serratia marcescens, UniProt P52699); enzyme activity, inhibitor; with: nitrocefin).
`COc1ccc(CC(=O)N[C@H]2CCOC2=O)cc1` has an Emax of 99.8% (sdiA).
The agonist activity of `O=C1C=C(Br)/C(=C/Br)O1` is reported as 1% (lasR; reporter gene, agonist; Escherichia coli JLD271; 10 µM, pSC11 and pJN105L plasmids; reference: OdDHL at same concentration).
The melting temperature of `N[C@H](C(=O)N1CCCC1)C1CCN(c2nccc3c(-c4ncc(Cl)cc4Cl)cccc23)CC1` is reported as 58.8 °C and 58.9 °C (Protein-arginine deiminase type-2 (PADI2, Homo sapiens, UniProt Q9Y2J8); thermal shift; 0.00302 µM).
